Measurements of several laboratories.
Each line is one published result; not all experiments were run side by side. ± gives the spread as reported.
Target: Cytochrome P450 2E1 (CYP2E1, Homo sapiens, UniProt P05181)
Sequence of UniProt P05181 (whole entry, looked up): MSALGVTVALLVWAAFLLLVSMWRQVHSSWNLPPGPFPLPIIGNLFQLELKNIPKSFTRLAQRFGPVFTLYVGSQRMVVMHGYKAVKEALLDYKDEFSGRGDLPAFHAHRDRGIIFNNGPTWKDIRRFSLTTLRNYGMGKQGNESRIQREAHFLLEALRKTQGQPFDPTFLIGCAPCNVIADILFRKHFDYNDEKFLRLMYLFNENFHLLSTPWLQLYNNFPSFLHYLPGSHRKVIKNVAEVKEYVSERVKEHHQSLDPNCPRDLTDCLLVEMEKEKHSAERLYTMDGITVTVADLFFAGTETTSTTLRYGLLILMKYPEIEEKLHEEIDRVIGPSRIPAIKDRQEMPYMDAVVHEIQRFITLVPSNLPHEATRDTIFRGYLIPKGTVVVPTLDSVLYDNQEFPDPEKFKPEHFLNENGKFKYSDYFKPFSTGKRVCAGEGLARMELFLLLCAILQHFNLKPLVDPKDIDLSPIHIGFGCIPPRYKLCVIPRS

SMILES	test	system	conditions	quantity	result
S=C=NCc1ccccc1	enzyme activity, inhibitor	human liver microsomes	concentration not given, added: chlorzoxazone	inhibition	74%
CCCCC1=NC2(CCCC2)C(=O)N1Cc1ccc(-c2ccccc2S(=O)(=O)Nc2noc(C)c2C)c(COCC)c1		human liver microsomes		CLint	0.00275 µL/min/pmol
OCCC(O)CO (centres unmarked)	4-nitrophenol hydroxylation, inhibitor		concentration not given, 30 min, pH 7.4, added: 4-nitrophenol 50 µM	remaining activity	0%
CN(C(=O)n1cnc(-c2ccc[n+]([O-])c2)c1)C1CCCCC1	enzyme activity, inhibitor	pooled human liver microsomes	0.1 to 30 µg/mL	inhibition	no effect
C=CC(O)CO (centres unmarked)	4-nitrophenol hydroxylation, inhibitor		concentration not given, 30 min, pH 7.4, added: 4-nitrophenol 50 µM	remaining activity	0%
CCc1oc2ccccc2c1C(=O)c1cc(I)c(OC)c(I)c1	p-nitrophenol hydroxylation, inhibitor		with additive 100 µM	IC50	76 µM
N#C[C@H](C[C@@H]1CCCNC1=O)NC(=O)[C@H](CC1CC1)NC(=O)c1cc2cccc(Cl)c2[nH]1	NADPH metabolic stability		2 µM, pH 7.4, 37 °C, 100 pmol/mL enzyme	half-life	> 2.13 h
c1ccc2cnccc2c1	inhibitor	reconstituted CYP-CPR-b5 system	mixed inhibition model, added: p-nitrophenol	Ki	0.738 ± 0.253 µM
C=CCN=C=S	enzyme activity, inhibitor	human liver microsomes	concentration not given, added: chlorzoxazone	inhibition	58%
CCc1oc2ccccc2c1C(=O)c1cc(Br)c(OC)c(Br)c1	p-nitrophenol hydroxylation, inhibitor		with additive 100 µM	IC50	51 µM
C[C@H]1CN(C2COC2)CCN1c1ccc(Nc2cc(-c3ccnc(N4CCn5c(cc6c5CC(C)(C)C6)C4=O)c3CO)cn(C)c2=O)nc1	substrate	recombinant enzyme	1 µM, 60 min	remaining compound	96.6 ± 9.7%

Some of these lines once more:
SMILES	test	system	conditions	quantity	result
CCc1oc2ccccc2c1C(=O)c1cc(I)c(OC)c(I)c1	p-nitrophenol hydroxylation, inhibitor		with additive 100 µM	IC50	76 µM
